Assay results collected from several papers.
“And” joins repeats or separate records; there may be more than shown. Numbers after ± are the reported error.

SMILES | tested on | assay | system | conditions | how to read | quantity | value
O=C1NC2(CC2)COc2ncc(F)cc2[C@H]2COCCN2c2ccn3ncc1c3n2 |  |  | Sprague-Dawley rat, male, serum | oral, 2.5 mg/kg/day, 4 weeks daily, end of treatment |  | alanine aminotransferase activity | 29.6 ± 2.5 U/L
CNC(=O)C[C@H](Cc1ccncc1)NC(=O)[C@@H](Cc1cccc(Br)c1)NC(=O)[C@@H](N)Cc1ccsc1 | Huh-7-ACE2 | CellTiter-Glo |  | 0.00153 µM, 48 h, unit not given | reference: DMSO | viability | 1.05 and 1 and 1.17
NC(=S)N/N=C/c1ccc(OCc2ccccc2)cc1 | IMR-32 | MTT |  | 400 µg/mL, 24 h | reference: untreated control | viability | 35.4%
CNC(=O)C[C@H](Cc1ccc(F)cc1)NC(=O)[C@@H](Cc1ccc(Cl)cc1Cl)NC(=O)[C@H](N)Cc1ccccc1C#N | Huh-7-ACE2 | CellTiter-Glo |  | 0.391 µM, 48 h, unit not given | reference: DMSO | viability | 1.03 and 1.08 and 0.967
COc1cc(OCc2cccc(-c3ccccc3)c2C)cc(OC)c1CN1CCCC[C@H]1C(=O)O | Jurkat E6-1 | WST-8 |  | 10 µM, 24 h | reference: control | viability | 58.6%
CC=CCC(C)C(O)C1C(=O)NC(CC)C(=O)N(C)C(OCC)C(=O)N(C)C(CC(C)(C)O)C(=O)NC(C(C)C)C(=O)N(C)C(CC(C)C)C(=O)NC(C)C(=O)NC(C)C(=O)N(C)C(CC(C)C)C(=O)N(C)C(CC(C)C)C(=O)N(C)C(C(C)C)C(=O)N1C (centres unmarked) | primary human hepatocytes | MTT |  | up to 80 µM |  | viability | not toxic
CNC(=O)C[C@H](Cc1ccccc1)NC(=O)[C@@H](Cc1ccc(Cl)cc1Cl)NC(=O)[C@H](N)Cc1ccccc1C#N | Huh-7-ACE2 | CellTiter-Glo |  | 0.0122 µM, 48 h, unit not given | reference: DMSO | viability | 1.09 and 0.967 and 0.91
NC(=O)N/N=C/c1ccc(OCc2cccc(F)c2)cc1 | IMR-32 | MTT |  | 100 µg/mL, 24 h | reference: untreated control | viability | 71%
CC(=O)N[C@H]1[C@H](Oc2ccc(C[C@H](NC(=O)CN)C(=O)N[C@@H](CCC(=O)O)C(=O)N[C@H](C(=O)N[C@@H](Cc3c[nH]cn3)C(=O)N[C@@H](Cc3c[nH]cn3)C(=O)N[C@@H](CCC(N)=O)C(=O)N[C@@H](CCCCN)C(=O)N[C@@H](CC(C)C)C(=O)N[C@H](C(=O)N[C@@H](Cc3ccccc3)C(=O)N[C@@H](Cc3ccccc3)C(=O)N[C@@H](C)C(N)=O)C(C)C)C(C)C)cc2)O[C@H](CO)[C@H](O)[C@@H]1O | SH-SY5Y | CCK-8 |  | 25 µM, 24 h | reference: untreated | viability | 95.8% and 93% and 103% and 92.9%
CNC(=S)N/N=C/c1ccc(OCc2ccccc2)cc1 | IMR-32 | MTT |  | 200 µg/mL, 24 h | reference: untreated control | viability | 68.7%
O=c1n(CCNCCOS(=O)(=O)c2ccccc2)c(=O)n(S(=O)(=O)c2ccccc2)c(=O)n1S(=O)(=O)c1ccccc1 | HUVEC | cell growth or viability, MTT |  | 100 µg/mL, 48 h |  | viability | 22.5%

A few entries again:
SMILES | tested on | assay | system | conditions | how to read | quantity | value
CNC(=O)C[C@H](Cc1ccccc1)NC(=O)[C@@H](Cc1ccc(Cl)cc1Cl)NC(=O)[C@H](N)Cc1ccccc1C#N | Huh-7-ACE2 | CellTiter-Glo |  | 0.0122 µM, 48 h, unit not given | reference: DMSO | viability | 1.09 and 0.967 and 0.91
